# Experimental data collected from several papers.
# Every numbered part comes from another study and shows a few of its results, in no order. Several values in a cell are separate wells, animals, samples, runs or records.
# Sequence of UniProt Q06418 (whole entry, looked up): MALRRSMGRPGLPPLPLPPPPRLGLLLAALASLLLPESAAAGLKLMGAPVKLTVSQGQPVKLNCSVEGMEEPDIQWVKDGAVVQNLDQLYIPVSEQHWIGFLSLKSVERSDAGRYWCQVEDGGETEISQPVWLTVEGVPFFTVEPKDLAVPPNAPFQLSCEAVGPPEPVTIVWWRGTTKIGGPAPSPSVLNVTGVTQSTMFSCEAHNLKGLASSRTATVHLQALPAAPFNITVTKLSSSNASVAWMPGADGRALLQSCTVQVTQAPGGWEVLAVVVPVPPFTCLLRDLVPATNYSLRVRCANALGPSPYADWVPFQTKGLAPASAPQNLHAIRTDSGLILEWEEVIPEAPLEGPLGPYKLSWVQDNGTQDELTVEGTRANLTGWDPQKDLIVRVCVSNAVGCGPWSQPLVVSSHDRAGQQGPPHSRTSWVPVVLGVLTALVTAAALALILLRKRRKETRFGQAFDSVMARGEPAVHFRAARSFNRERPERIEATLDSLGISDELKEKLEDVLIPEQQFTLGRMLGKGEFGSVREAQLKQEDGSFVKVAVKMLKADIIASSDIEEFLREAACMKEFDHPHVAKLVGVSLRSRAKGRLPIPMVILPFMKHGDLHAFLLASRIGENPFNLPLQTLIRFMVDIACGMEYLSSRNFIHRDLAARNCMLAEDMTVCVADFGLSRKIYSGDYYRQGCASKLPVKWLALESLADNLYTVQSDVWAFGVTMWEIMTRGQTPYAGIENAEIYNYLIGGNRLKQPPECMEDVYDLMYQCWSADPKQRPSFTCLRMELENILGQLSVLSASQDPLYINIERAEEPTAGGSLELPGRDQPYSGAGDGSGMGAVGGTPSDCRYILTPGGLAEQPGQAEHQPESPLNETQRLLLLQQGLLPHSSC
# Sequence of UniProt P07948 (whole entry, looked up): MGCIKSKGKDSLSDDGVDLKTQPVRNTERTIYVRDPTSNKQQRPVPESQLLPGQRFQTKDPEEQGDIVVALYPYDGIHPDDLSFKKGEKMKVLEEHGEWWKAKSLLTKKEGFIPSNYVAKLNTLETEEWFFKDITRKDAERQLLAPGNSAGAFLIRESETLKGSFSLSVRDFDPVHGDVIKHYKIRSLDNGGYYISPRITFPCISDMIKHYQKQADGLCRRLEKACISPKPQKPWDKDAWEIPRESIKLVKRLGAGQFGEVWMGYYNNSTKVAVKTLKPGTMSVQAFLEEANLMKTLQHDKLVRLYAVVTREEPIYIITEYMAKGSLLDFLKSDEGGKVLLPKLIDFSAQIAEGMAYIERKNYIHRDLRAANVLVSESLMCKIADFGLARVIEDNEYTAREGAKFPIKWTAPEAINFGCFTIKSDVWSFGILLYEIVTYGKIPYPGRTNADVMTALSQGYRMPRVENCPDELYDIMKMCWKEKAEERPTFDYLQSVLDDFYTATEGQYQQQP
# Sequence of UniProt Q9UBS0 (whole entry, looked up): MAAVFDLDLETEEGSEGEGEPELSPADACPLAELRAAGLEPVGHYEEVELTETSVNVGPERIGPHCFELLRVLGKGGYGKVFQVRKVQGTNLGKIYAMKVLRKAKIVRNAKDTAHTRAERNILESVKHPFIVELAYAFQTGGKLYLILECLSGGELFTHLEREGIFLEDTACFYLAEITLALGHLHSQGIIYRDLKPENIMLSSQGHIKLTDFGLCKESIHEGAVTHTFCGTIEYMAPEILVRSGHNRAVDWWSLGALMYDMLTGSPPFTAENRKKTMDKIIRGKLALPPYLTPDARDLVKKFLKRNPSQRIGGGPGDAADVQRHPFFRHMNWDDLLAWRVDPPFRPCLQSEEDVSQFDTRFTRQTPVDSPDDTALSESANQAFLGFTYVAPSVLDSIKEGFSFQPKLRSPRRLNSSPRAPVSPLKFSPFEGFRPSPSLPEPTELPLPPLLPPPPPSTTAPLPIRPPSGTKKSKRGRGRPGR
# Sequence of UniProt P51955 (whole entry, looked up): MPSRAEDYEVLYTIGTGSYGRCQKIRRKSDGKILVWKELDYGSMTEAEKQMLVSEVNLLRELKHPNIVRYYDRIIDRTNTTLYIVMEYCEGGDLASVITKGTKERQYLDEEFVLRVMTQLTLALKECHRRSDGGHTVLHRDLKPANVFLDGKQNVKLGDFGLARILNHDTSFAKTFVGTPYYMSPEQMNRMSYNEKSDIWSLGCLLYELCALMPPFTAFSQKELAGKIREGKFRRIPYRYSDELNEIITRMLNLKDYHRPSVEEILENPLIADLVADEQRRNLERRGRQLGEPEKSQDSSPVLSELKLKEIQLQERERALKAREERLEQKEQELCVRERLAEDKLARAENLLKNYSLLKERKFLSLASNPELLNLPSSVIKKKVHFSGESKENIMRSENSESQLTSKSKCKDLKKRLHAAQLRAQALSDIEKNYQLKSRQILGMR
# Sequence of UniProt Q00526 (whole entry, looked up): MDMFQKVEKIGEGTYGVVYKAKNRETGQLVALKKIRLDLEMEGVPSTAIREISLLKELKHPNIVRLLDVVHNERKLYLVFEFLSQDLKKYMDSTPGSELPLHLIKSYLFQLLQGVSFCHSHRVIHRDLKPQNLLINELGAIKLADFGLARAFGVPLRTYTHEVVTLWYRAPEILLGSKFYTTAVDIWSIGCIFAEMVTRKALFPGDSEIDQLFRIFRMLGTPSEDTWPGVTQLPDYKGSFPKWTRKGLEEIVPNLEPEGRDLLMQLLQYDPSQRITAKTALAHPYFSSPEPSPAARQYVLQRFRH
# Sequence of UniProt O43293 (whole entry, looked up): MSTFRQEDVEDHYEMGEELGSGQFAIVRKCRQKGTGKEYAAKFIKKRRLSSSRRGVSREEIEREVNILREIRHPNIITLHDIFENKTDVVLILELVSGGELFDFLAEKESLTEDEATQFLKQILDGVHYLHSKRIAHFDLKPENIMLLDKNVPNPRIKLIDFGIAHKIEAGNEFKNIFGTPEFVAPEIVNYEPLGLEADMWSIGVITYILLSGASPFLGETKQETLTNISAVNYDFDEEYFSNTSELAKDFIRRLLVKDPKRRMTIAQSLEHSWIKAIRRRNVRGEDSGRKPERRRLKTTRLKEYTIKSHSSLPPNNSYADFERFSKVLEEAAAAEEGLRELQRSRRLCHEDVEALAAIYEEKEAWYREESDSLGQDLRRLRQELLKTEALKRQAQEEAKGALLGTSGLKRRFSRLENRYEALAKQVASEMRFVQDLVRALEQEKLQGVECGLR
# Sequence of UniProt P36896 (whole entry, looked up): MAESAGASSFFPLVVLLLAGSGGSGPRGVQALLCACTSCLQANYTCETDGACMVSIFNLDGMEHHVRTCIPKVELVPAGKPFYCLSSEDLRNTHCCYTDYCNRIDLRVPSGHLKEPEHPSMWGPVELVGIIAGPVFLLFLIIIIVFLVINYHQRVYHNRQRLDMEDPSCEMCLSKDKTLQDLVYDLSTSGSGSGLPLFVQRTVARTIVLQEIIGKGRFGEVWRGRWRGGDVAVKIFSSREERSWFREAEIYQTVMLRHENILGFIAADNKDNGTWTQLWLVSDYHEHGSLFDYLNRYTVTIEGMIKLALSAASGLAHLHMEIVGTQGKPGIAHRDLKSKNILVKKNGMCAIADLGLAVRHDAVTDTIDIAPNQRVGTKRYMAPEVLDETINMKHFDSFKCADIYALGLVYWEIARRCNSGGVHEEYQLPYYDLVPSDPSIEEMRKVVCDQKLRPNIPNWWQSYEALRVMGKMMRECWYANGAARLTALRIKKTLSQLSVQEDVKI

# Study 1
# Compound: CN(C1COC1)C(C)(C)/C=C(\C#N)C(=O)N1CCC[C@H]1Cn1nc(-c2ccc(Oc3ccccc3)cc2F)c2c(N)ncnc21
# Effect on: kinase activity
# MARK2: Serine/threonine-protein kinase MARK2 (MARK2, Homo sapiens, UniProt Q7KZI7)
# Sequence of UniProt Q7KZI7 (whole entry, looked up): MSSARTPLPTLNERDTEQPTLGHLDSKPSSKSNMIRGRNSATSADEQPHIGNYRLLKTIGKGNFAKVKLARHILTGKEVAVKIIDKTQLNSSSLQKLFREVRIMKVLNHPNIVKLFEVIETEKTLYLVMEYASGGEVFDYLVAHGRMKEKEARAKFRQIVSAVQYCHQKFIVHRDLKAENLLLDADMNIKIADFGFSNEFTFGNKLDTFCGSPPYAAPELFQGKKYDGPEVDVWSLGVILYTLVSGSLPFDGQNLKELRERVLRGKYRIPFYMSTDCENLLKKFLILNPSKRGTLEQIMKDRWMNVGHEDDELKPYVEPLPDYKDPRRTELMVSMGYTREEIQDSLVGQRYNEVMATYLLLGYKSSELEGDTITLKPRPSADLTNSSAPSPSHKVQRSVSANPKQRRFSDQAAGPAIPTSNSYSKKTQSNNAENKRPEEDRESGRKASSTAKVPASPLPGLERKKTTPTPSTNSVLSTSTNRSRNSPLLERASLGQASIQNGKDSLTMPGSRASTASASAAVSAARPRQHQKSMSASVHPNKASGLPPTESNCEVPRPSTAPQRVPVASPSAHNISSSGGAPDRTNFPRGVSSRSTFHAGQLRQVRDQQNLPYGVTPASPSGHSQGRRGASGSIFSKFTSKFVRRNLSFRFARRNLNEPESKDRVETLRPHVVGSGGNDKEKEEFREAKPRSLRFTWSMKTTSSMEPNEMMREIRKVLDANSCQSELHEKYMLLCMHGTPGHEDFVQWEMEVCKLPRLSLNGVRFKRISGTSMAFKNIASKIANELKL
target,setting,inhibition
"HASPIN (Homo sapiens, UniProt Q8TF76)",0.1 µM,3%
"Tyrosine-protein kinase Lyn, isoform B (LYN, Homo sapiens, UniProt P07948)",1 µM,23%
"MAP4K4 (Homo sapiens, UniProt O95819)",0.1 µM,-1%
"NEK2 (Homo sapiens, UniProt P51955)",1 µM,-1%
"NEK1 (Homo sapiens, UniProt Q96PY6)",1 µM,4%
"RPS6KB2 (Homo sapiens, UniProt Q9UBS0)",0.1 µM,-3%
MARK2,0.1 µM,-1%
"Protein kinase C beta type, isoform beta-II (PRKCB, Homo sapiens, UniProt P05771)",0.1 µM,5%
"DAPK3 (Homo sapiens, UniProt O43293)",0.1 µM,-4%
"IRAK4 (Homo sapiens, UniProt Q9NWZ3)",1 µM,0%
MARK2,1 µM,3%
"Cyclin-dependent kinase 2, with cyclin E (CDK2, Homo sapiens, UniProt P24941)",1 µM,-10%
"AKT3 (Homo sapiens, UniProt Q9Y243)",0.1 µM,2%
"PRKCE (Homo sapiens, UniProt Q02156)",1 µM,-1%
"ROS1 (Homo sapiens, UniProt P08922)",0.1 µM,1%

# Study 2
# SMILES: CC[C@@]1(c2cccc(-c3c(F)cncc3OC)c2)C2=C(Nc3n[nH]cc31)[C@H](F)C(C)(C)CC2=O (single isomer, unassigned)
# Concentration: 1 µM
target,assay,scale,remaining binding
"ACVR1B (Homo sapiens, UniProt P36896)","kinase binding, KINOMEscan",reference: DMSO control,89%
"TYRO3 (Homo sapiens, UniProt Q06418)","binding, competition with immobilised ligand",,100%
"Tyrosine-protein kinase ABL1, non-phosphorylated (ABL1, Homo sapiens, UniProt P00519, H396P)","kinase binding, KINOMEscan",reference: DMSO control,91%
"BRAF (Homo sapiens, UniProt P15056)","kinase binding, KINOMEscan",reference: DMSO control,83%
"FLT3 (Homo sapiens, UniProt P36888, K663Q)","binding, competition with immobilised ligand",,94%
"TAOK1 (Homo sapiens, UniProt Q7L7X3)","kinase binding, KINOMEscan",reference: DMSO control,61%
"Tyrosine-protein kinase ABL1, phosphorylated (ABL1, Homo sapiens, UniProt P00519, Q252H)","kinase binding, KINOMEscan",reference: DMSO control,96%
"RET (Homo sapiens, UniProt P07949, M918T)","binding, competition with immobilised ligand",,78%
"STK4 (Homo sapiens, UniProt Q13043)","kinase binding, KINOMEscan",reference: DMSO control,81%
"CDK3 (Homo sapiens, UniProt Q00526)","binding, competition with immobilised ligand",,2.6%
"DCLK2 (Homo sapiens, UniProt Q8N568)","kinase binding, KINOMEscan",reference: DMSO control,100%
"SRPK3 (Homo sapiens, UniProt Q9UPE1)","binding, competition with immobilised ligand",,84%

# Study 3
# Structure (SMILES): Cc1ccc(O)c(C)c1-c1cnc2[nH]c(-c3cnc(N4CCC5(CC4)CC(N4CCN(c6ccc(NC7CCC(=O)NC7=O)cc6F)CC4)CO5)nc3)cc2c1C#N (centres unmarked)
# PKMYT1: Membrane-associated tyrosine- and threonine-specific cdc2-inhibitory kinase (PKMYT1, Homo sapiens, UniProt Q99640)
# Sequence of UniProt Q99640 (whole entry, looked up): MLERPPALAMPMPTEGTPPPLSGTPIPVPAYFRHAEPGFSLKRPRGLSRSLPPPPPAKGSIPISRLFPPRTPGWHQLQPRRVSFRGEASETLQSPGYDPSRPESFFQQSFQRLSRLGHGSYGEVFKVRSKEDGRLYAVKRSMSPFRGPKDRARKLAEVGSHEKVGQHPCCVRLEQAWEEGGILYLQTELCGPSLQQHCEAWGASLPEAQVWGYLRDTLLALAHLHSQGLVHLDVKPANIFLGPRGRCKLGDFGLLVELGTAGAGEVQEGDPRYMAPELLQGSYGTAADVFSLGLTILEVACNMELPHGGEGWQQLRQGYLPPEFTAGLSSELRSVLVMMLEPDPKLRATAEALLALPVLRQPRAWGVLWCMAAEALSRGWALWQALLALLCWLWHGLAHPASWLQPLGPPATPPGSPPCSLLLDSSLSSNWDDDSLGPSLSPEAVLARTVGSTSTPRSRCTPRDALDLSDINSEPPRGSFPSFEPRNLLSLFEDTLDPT
target or system,assay,setting,inhibition
PKMYT1,"cell-free assay, inhibitor, TR-FRET",0.3333 µM,99.7%
PKMYT1,"cell-free assay, inhibitor, TR-FRET",1 µM,100%
HCC1599,item: CDK1 phospho-Thr14,0.46 nM,-12.3%
PKMYT1,"cell-free assay, inhibitor, TR-FRET",0.1111 µM,98.8%
PKMYT1,"cell-free assay, inhibitor, TR-FRET",37.04 nM,93.3%
PKMYT1,,0.1111 µM,98.6%
HCC1599,item: CDK1 phospho-Thr14,0.05 nM,-10.1%
PKMYT1,"cell-free assay, inhibitor, TR-FRET",12.35 nM,78.7%

# Study 4
# Compound: COCC1CC2C(CCC3C(O)CCC32)c2ccc(O)cc21 (centres unmarked)
cell line,assay,setting,scale,log2 fold change
PANC-1,"microarray, item: PIF1",100 µM,reference: untreated,0.521
SK-OV-3,"microarray, item: MCM6",25 µM,reference: untreated,0.165
SK-OV-3,"microarray, item: AURKA",100 µM,reference: untreated,0.0601
PANC-1,"DNA microarray, item: KIF20A",100 µM,reference: untreated cells,0.505 and 0.535 and 0.532 and 0.529 and 0.52
SK-OV-3,"DNA microarray, item: ADAMTS8",25 µM,reference: untreated,4.84
A549,"DNA microarray, item: GINS1",25 µM,reference: untreated cells,0.154
A549,"DNA microarray, item: MCM7",100 µM,reference: untreated cells,-0.449
PANC-1,"DNA microarray, item: CCL22 mRNA",25 µM,reference: control,4.66
SK-OV-3,"microarray, item: GZMK",100 µM,reference: untreated,0
SK-OV-3,"DNA microarray, item: CCL1",100 µM,reference: untreated,2.41
SK-OV-3,"DNA microarray, item: KIF20A",100 µM,reference: untreated cells,0.0337 and 0.0331 and 0.0654 and 0.000596 and -0.0457
PANC-1,"microarray, item: CDC25B",100 µM,reference: untreated,0.168
SK-OV-3,"DNA microarray, item: GINS1",100 µM,reference: untreated cells,-0.343
SK-OV-3,"microarray, item: SPC25",25 µM,reference: untreated,-0.104
A549,"DNA microarray, item: C6",25 µM,reference: untreated cells,7.78

# A few entries again (study 3):
target or system,assay,setting,inhibition
PKMYT1,"cell-free assay, inhibitor, TR-FRET",1 µM,100%
HCC1599,item: CDK1 phospho-Thr14,0.46 nM,-12.3%
PKMYT1,"cell-free assay, inhibitor, TR-FRET",0.1111 µM,98.8%
PKMYT1,"cell-free assay, inhibitor, TR-FRET",37.04 nM,93.3%
PKMYT1,,0.1111 µM,98.6%
HCC1599,item: CDK1 phospho-Thr14,0.05 nM,-10.1%
PKMYT1,"cell-free assay, inhibitor, TR-FRET",12.35 nM,78.7%
